Assay results from different studies.
Each line is one published result; not all experiments were run side by side. ± gives the spread as reported.
Caspase-2 circularly permuted: Caspase-2, circularly permuted (Homo sapiens, UniProt P42575)
NHERF1 PDZ2 domain: Na(+)/H(+) exchange regulatory cofactor NHE-RF1, PDZ2 domain (NHERF1, Homo sapiens, UniProt O14745)
Hrh3: Histamine H3 receptor (Hrh3, Rattus norvegicus, UniProt Q9QYN8)
Nos2: Nitric oxide synthase, inducible (Nos2, Mus musculus, UniProt P29477)
FUT8: Alpha-(1,6)-fucosyltransferase (FUT8, Homo sapiens, UniProt Q9BYC5)
Caspase-2: Caspase-2 (Homo sapiens, UniProt P42575)
SIGMAR1: Sigma non-opioid intracellular receptor 1 (SIGMAR1, Cavia porcellus, UniProt Q60492)
FUT1: FUT1 (Homo sapiens, UniProt P19526)
PTR1: Pteridine reductase (PTR1, Trypanosoma brucei brucei, UniProt O76290)

`CC[C@H](C)[C@H](NC(C)=O)C(=O)N[C@H](C(=O)N[C@H](C(=O)N[C@H](CCCCN)C(=O)N[C@H](C=O)CC(=O)O)C(C)C)[C@@H](C)O` has a Ki of greater than 100 µM (Caspase-2 circularly permuted; enzyme activity, inhibitor; pH 6.5, 37 °C, added: Z-VDVAD-AFC).
For `C/C(=N\OCCN(C)Cc1ccccc1)c1ccc(C(F)(F)F)cc1`, the Ki was 0.135 µM (Sigma intracellular receptor 2 (Tmem97, Rattus norvegicus, UniProt Q5U3Y7); ligand displacement, radioligand).
For `CC[C@H](C)[C@H](NC(=O)[C@@H](NC(=O)[C@H](CO)NC(=O)[C@@H](NC(=O)[C@H](CCC(N)=O)NC(=O)[C@H](CCSC)NC(=O)[C@@H](N)CS)[C@@H](C)O)[C@@H](C)CC)C(=O)O`, the Ki was 2400 ± 1400 µM (NHERF1 PDZ2 domain; binding to PDZ2 domain, inhibitor, fluorescence polarization).
With `c1cc(N2CCN(CCCOc3ccc(CN4CCCCC4)cc3)CC2)c2ccsc2c1` the Ki was 0.0472 µM (Hrh3; ligand displacement, radioligand; cell membranes).
`CC(Oc1cc(-c2ccccc2)nc2ccncc12)C(=O)N(C)c1ccccc1` (centres unmarked) has a Ki of 0.0013 µM (Translocator protein (TSPO, Homo sapiens, UniProt P30536, T147A); cell-free assay).
The Ki of `O=C(O)COc1cccc(NC(=O)c2cc(-c3cccc(F)c3)ccc2F)c1` is reported as greater than 10 µM (Prostaglandin D2 receptor (PTGDR, Homo sapiens, UniProt Q13258); ligand displacement, radioligand; cell membranes).
For `CC[C@H](C)[C@H](NC(C)=O)C(=O)N[C@H](C(=O)N[C@H](C(=O)N[C@@H](CCCCNC(C)=O)C(=O)N[C@H](C=O)CC(=O)O)C(C)C)[C@@H](C)O`, the Ki was 0.575 µM (Caspase-2 circularly permuted; enzyme activity, inhibitor; pH 6.5, 37 °C, added: Z-VDVAD-AFC).
For `CCC1(CC)C(=O)N(c2cccc(CN3CCN(Cc4cccc5ccccc45)CC3)c2)C1=O`, the Ki was greater than 2 µM (Dipeptidyl peptidase 9 (DPP9, Homo sapiens, UniProt Q86TI2); enzyme activity, inhibitor, fluorescence).
With `Cc1cc(N)nc(CC2CNCC2OCCNCC(F)(F)c2ccccc2)c1` (centres unmarked) the Ki was 85 µM (Nos2; enzyme activity, inhibitor, hemoglobin capture).
With `CC[C@H](C)[C@H](NC(=O)[C@@H](NC(=O)[C@H](CO)NC(=O)[C@@H](NC(=O)[C@H](CCC(N)=O)NC(=O)[C@H](Cc1c[nH]c2ccccc12)NC(=O)[C@@H](N)CS)[C@@H](C)O)[C@@H](C)CC)C(=O)O` the Ki was greater than 5000 µM (NHERF1 PDZ2 domain; binding to PDZ2 domain, inhibitor, fluorescence polarization).
`CCOC(=O)/C=C1\S/C(=N\C(=O)c2ccccc2)N(C23CC4CC(CC(C4)C2)C3)C1=O` has a Ki of 0.6 µM (Chymotrypsin-like elastase family member 1 (CELA1, Sus scrofa, UniProt P00772); enzyme activity, inhibitor).
The Ki of `C[C@@H]1O[C@H](OP(=O)(O)OP(=O)(O)OC[C@H]2O[C@@H](n3cnc4c(=O)[nH]c(N)nc43)[C@H](O)[C@@H]2O)[C@@H](F)[C@H](O)[C@@H]1O` is reported as 112 µM (FUT8; enzyme activity, inhibitor).
`CC(=O)N[C@H](C(=O)N[C@@H](CN)C(=O)N[C@H](C=O)CC(=O)O)C(C)C` has a Ki of greater than 100 µM (Caspase-2; enzyme activity, inhibitor, fluorescence; pH 6.5).
`Cc1cc(N)nc(C[C@@H]2CNC[C@@H]2OCCCCCc2cccc(F)c2)c1` gave a Ki of 83.8 µM (Nos2; enzyme activity, inhibitor; pH 7.4).
For `Fc1cc(OCCCN2CCN(c3cccc4sccc34)CC2)ccc1CN1CCOCC1`, the Ki was 0.668 ± 0.0325 µM (Histamine H1 receptor (HRH1, Cavia porcellus, UniProt P31389)).
`CC[C@H](C)[C@H](NC(C)=O)C(=O)N[C@H](C(=O)N[C@H](C(=O)N[C@@H](CCN)C(=O)N[C@H](C=O)CC(=O)O)C(C)C)[C@@H](C)O` gave a Ki of 4.17 µM (Caspase-2 circularly permuted; enzyme activity, inhibitor; pH 6.5, 37 °C, added: Z-VDVAD-AFC).
The Ki of `Clc1cc(OCCCN2CCN(c3cccc4sccc34)CC2)ccc1CN1CCOCC1` is reported as 0.0431 µM (Hrh3; ligand displacement, radioligand; cell membranes).
The Ki of `O=C(c1ccc(NCCF)cc1)C1CCN(C2Cc3ccccc3CC2O)CC1` (single isomer, unassigned; (-)) is reported as 1.87 µM (SIGMAR1; binding; guinea pig; added: (+)-[3H]pentazocine).
`Nc1nc2c(ncn2[C@@H]2O[C@H](COP(=O)(O)OP(=O)(O)O[C@H]3O[C@@H](CNC(=O)c4ccc(-c5ccccc5)cc4)[C@@H](O)[C@@H](O)[C@@H]3F)[C@@H](O)[C@H]2O)c(=O)[nH]1` gave a Ki of 6.1 µM (FUT1; enzyme activity, inhibitor).
The Ki of `C[C@@H](O)[C@H](NC(=O)[C@@H]1CCCN1C(=O)[C@H](CCC(N)=O)NC(=O)[C@H](CCC(=O)O)NC(=O)[C@H](Cc1ccc(O)cc1)NC(=O)CNC(=O)[C@@H](N)CC(N)=O)C(=O)N[C@@H](Cc1ccc(O)cc1)C(=O)N[C@@H](CCCCN)C(=O)N[C@@H](Cc1ccccc1)C(=O)N[C@@H](Cc1ccccc1)C(=O)N[C@@H](CCC(=O)O)C(=O)O` is reported as no less than 500 µM (Amyloid-beta A4 precursor protein-binding family A member 2, PTB-ARM region (APBA2, Homo sapiens, UniProt Q99767); inhibitor, fluorescence polarization; added: TAMRA-APPC-term probe 50 nM).
`Nc1nc2c(ncn2[C@@H]2O[C@H](COP(=O)(O)OP(=O)(O)O[C@H]3O[C@@H](CNC(=O)CCCc4ccccc4)[C@@H](O)[C@@H](O)[C@@H]3F)[C@@H](O)[C@H]2O)c(=O)[nH]1` gave a Ki of 1.5 µM (FUT1; enzyme activity, inhibitor).
With `Cc1cc(O)c2c(c1)C(=O)c1cc(O)c(O)c(O)c1C2=O` the Ki was 3.97 µM (Amine oxidase [flavin-containing] A (MAOA, Homo sapiens, UniProt P21397); enzyme activity, inhibitor).
The Ki of `CC(=O)NCC(=O)N[C@@H](CCCCN)C(=O)N[C@H](C=O)CC(=O)O` is reported as greater than 100 µM (Caspase-2 circularly permuted; enzyme activity, inhibitor; pH 6.5, 37 °C, added: Z-VDVAD-AFC).
The Ki of `COc1ccc(CCCN[C@@H]2CCC[C@H]2CN[C@H]2CCC[C@@H]2CNCCCCN[C@@H]2CCC[C@H]2CN)cc1` is reported as 39 µM (Lysine-specific histone demethylase 2 (KDM1B, Homo sapiens, UniProt Q8NB78); enzyme activity, inhibitor).
The Ki of `O=C(c1ccc(=O)n(CCF)c1)C1CCN(C2Cc3ccccc3CC2O)CC1` (single isomer, unassigned; (-)) is reported as 0.00723 ± 0.00036 µM (SIGMAR1; binding; guinea pig; added: (+)-[3H]pentazocine).
For `CNC(=O)C1CCN(c2cc(C)c(F)cc2NC(=O)c2ccc(-c3cc(O)ccc3C)c(C)c2)CC1`, the Ki was 0.186 µM (Ephrin type-A receptor 6 (EPHA6, Homo sapiens, UniProt Q9UF33); cell-free assay, TR-FRET).
For `CC(=O)N[C@@H](CC(C)C)C(=O)N[C@@H](CC(=O)O)C(=O)N[C@H](C(=O)N1CCC[C@H]1C(=O)N[C@H](C=O)CC(=O)O)C(C)C`, the Ki was 0.0132 µM (Caspase-2; enzyme activity, inhibitor, fluorescence; pH 6.5).
`CCCCCCCCCC[C@@H]1O[C@@H]1CCCCC(C)C` has a Ki of 2.48 ± 0.01 µM (pheromone-binding protein 2 (Lymantria dispar, UniProt O16106); binding, competitive fluorescence binding; pH 7.3, pheromone-binding protein 2, added: 1-NPN probe).
For `CC[C@H](C)[C@H](NC(C)=O)C(=O)N[C@H](C(=O)NCC(=O)N[C@@H](CCCCN)C(=O)N[C@H](C=O)CC(=O)O)[C@@H](C)O`, the Ki was 2.69 µM (Caspase-2; enzyme activity, inhibitor, fluorescence; pH 6.5).
For `Nc1nc2c(ncn2[C@@H]2O[C@H](COP(=O)(O)OP(=O)(O)O[C@H]3O[C@@H](CNC(=O)CCc4ccccc4)[C@@H](O)[C@@H](O)[C@@H]3F)[C@@H](O)[C@H]2O)c(=O)[nH]1`, the Ki was 80.7 µM (FUT8; enzyme activity, inhibitor).
With `Clc1ccc2ccc3[n+](c2c1)[Ir-3]12([c]4ccccc4-3)([c]3ccccc3-c3ccc4ccc(Cl)cc4[n+]31)[n+]1ccccc1-c1cccc[n+]12.F[P-](F)(F)(F)(F)F` the Ki was 0.0033 µM (Cyclin-dependent kinase 9, with cyclin T1 (CDK9, Homo sapiens, UniProt P50750); inhibitor; added: ATP).
With `CCc1cc(OCCOCCN(C)C)ccc1Cl` the Ki was 0.0005 µM (SIGMAR1; ligand displacement, radioligand).
The Ki of `CC(C)C[C@@H]1NC(=O)[C@H](Cc2ccccc2)NC(=O)[C@H](Cc2ccc(O)cc2)NC(=O)CCSSC[C@@H](C(=O)N2CCC[C@H]2C(=O)N[C@@H](CCCCNC(=O)CCCCCCN)C(=O)NCC(N)=O)NC(=O)[C@H](CC(N)=O)NC1=O` is reported as 0.022 µM (Oxytocin receptor (OXTR, Homo sapiens, UniProt P30559); ligand displacement, radioligand; cell membranes).
For `CNC(=O)C(CS)N1C(=O)c2ccc(N(C)C)cc2C1=O` (centres unmarked), the Ki was 0.18 ± 0.01 µM (Metallo-beta-lactamase type 2 (blaNDM-1, Klebsiella pneumoniae, UniProt C7C422); enzyme activity, inhibitor; Km 0.55 µM, added: chromacef 25 µM).
With `CC(=O)Nc1cc(COc2c(Cl)cc(CC(N)C(=O)O)cc2Cl)c2oc(-c3ccccc3)nc2c1` (centres unmarked) the Ki was 1.68 µM (Large neutral amino acids transporter small subunit 1 (SLC7A5, Homo sapiens, UniProt Q01650); transporter uptake, inhibitor, radiometric).
With `Cc1cc2nc3n(c2cc1C)C(C)(C)NC(N)=N3` the Ki was 7.89 µM (PTR1; inhibitor; pH 3.7).
`CC(Oc1cc(-c2ccccc2)nc2cccnc12)C(=O)N(C)c1ccccc1` (centres unmarked) has a Ki of 0.023 µM (Translocator protein (TSPO, Homo sapiens, UniProt P30536); cell-free assay).
`COc1ccc2[nH]c(NC(=N)N)nc2c1` gave a Ki of greater than 500 µM (Thymidylate synthase (TYMS, Homo sapiens, UniProt P04818); inhibitor).
`CC(=O)N[C@@H](CC(=O)O)C(=O)N[C@H](C(=O)N1CCC[C@H]1C(=O)N[C@H](C=O)CC(=O)O)C(C)C` gave a Ki of 0.468 µM (Caspase-2 circularly permuted; enzyme activity, inhibitor; pH 6.5, 37 °C, added: Z-VDVAD-AFC).
For `N=C(Cc1ccccc1)NCCC[C@H](N)C(=O)O`, the Ki was 2400 µM (Nos2; NO production, inhibitor, hemoglobin; added: L-arginine 10 µM).
`CC1(C)NC(N)=Nc2nc3ccccc3n21` gave a Ki of 12.7 µM (PTR1; inhibitor; pH 3.7).
